Published values gathered from unrelated publications.
Numbered parts are unrelated; each lists some results of a single study.

Study 1 — technique: RNA Bind-n-Seq; molecule type: RNA; sample: in vitro; concentration: not given; relative to: input RNA pool; reading: higher = stronger binding; endpoint: bound/input enrichment
Target: RING finger protein unkempt homolog, zinc fingers 1-6, GST-SBP tag (UNK, Homo sapiens, UniProt Q9C0B0, residues 30-357)
Setting: RNA with constant flanks, human-mouse chimeric sites, ends assumed
All sequences stand within: GGGAGUUCUACAGUCCGACGAUC … CAACAGAGGAUUGAGCAUCA
Target sequence (chain): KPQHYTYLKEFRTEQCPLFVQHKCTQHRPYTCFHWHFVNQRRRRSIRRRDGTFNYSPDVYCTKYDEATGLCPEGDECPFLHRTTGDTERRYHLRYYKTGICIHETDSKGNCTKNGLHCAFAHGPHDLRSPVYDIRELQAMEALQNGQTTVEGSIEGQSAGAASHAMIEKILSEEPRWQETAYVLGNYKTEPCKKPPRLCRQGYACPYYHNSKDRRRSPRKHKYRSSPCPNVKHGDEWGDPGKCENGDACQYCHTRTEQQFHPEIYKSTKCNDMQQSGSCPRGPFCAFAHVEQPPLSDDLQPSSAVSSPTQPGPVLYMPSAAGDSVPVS
AUCAAGUACUUUGGGGACAUCAUUAGUGUGGGACAGAGACUGUUGCAAGGGGCCCGGAUCUUAGGGAUUCCAGUUAUCAUAACGGAACAAUACCCCAAAGGACUUGGCAGCACCGUUCAA: 0.21 ratio
UCGGAUGCUGUGCUGGGUCACUUUCCGUAUCCAGAUCCUUCACAGUGGACAGAUGAAGAACUGGGAAUCCCUCCUGAUGACGAGGACUGACACUGUAGACUCAGCCUACGAGUAGGAGCA: 0.312 ratio
UUCCCAACCUCCCGCCUCACCCCACCCCCGCUUUUUGGAAAGUUUUUGGCGUUUCUUUUUUUUAGAAAUACAAAGUGAUUACAGUUUCCCCCGCAAGGGUCUAUCGAAGGGCUUGACGGA: 0.76 ratio
GUUGCCAGCUUCCGGUUCCGUUGGGCUAGCAAGCUCCCUGAGCUACGUGUCUCUACGCUCUCAAUCCGCCAUCCAACAAACAUGGAUCAGGUAAUGCAGUUUGUGGAGCCCAGCCGGCAG: 0.0901 ratio
GCUCUUGGGAAUGUAAUAAGUGCCUUGGGGGACAAGAGCAAGAGAGCCACCCAUGUCCCUUACAGAGACUCUAAGCUGACAAGACUCUUGCAGGAUUCCCUUGGGGGUAACAGCCAAACC: 0.157 ratio
CUGGCCUGGCCCUCCCCAGGGGCCUCCUUUCGUAUAGUAACUGUCAGUGCAUCAGAUAUUUUUAGCUGCAACUCCCUACUGGGUGGGGCACCCAUUUCAGGCAGAAGGUUUUGGUACCCU: 0.74 ratio
AAAGCCCAAGUAUUUUGAAAAAACUCGAACAGAUUUGACAAGGGUAGCCAGCUUGGAGUCUAGCAAUUUGCCAAUGUGUUUACCAAUCUGGGGGCUUGUUUUUCUUUCCCUUCCUUAAAU: 0.477 ratio
ACACAAUAUGAGACCAACAGCAUGGACUUCAAAGUCGGGGCAGAUGGGACAGUCUUCGCCACCCGGGAGCUGCAGGUCCCCUCCGAGCAGGUGGCCUUCACGGUGACUGCAUGGGACAGC: 0.174 ratio

Study 2 — technique: universal PBM; molecule type: double-stranded DNA, one strand shown; sample: in vitro; concentration: 600 nM; reading: higher = stronger binding; endpoint: E-score
Target: Sal-like protein 4, full length isoform A (SALL4, Homo sapiens, UniProt Q9UJQ4, residues 1-1053)
Chain of UniProt Q9UJQ4 (whole entry, looked up): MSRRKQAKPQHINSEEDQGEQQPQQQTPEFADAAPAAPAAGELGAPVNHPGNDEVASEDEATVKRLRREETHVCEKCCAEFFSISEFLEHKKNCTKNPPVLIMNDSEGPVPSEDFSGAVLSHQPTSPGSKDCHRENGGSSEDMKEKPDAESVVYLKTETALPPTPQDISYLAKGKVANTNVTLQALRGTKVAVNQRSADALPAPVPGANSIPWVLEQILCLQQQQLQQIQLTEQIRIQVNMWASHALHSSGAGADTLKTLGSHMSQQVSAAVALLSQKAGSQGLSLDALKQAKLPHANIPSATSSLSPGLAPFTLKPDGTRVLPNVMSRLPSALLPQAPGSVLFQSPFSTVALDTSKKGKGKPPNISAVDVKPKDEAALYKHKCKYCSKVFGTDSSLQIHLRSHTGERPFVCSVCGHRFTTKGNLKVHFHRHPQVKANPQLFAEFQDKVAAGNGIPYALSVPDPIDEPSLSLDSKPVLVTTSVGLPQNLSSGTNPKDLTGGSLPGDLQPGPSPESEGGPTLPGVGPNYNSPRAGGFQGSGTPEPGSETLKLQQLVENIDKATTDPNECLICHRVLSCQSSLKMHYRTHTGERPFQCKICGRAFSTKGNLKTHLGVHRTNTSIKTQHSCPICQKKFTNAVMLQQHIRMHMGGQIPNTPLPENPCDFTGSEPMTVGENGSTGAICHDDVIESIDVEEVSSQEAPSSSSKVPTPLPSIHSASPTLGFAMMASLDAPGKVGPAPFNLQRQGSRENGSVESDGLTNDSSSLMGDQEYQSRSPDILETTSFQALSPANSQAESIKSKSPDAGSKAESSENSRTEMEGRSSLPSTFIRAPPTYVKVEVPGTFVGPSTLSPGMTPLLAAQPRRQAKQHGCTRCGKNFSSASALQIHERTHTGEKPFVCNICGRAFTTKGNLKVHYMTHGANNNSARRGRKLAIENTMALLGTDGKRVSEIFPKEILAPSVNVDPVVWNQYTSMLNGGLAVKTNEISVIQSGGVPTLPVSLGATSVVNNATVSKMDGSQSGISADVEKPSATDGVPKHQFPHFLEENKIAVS
Setting: 8-mer, flanks averaged, mean of replicates
CGGTAGAC: -0.0137
ACCAGAAT: 0.0398
CGAGTAAC: 0.0998
ATTTCATC: 0.267
ACCGCCAA: -0.114
ACAGCGTA: -0.133
CCCAAAGG: -0.238
CGTGCGAG: -0.258
GGCAACAC: 0.0215
GAACAAAA: 0.219
ATAGGAAA: 0.298
CCGTACTA: 0.051
AGAAACTG: -0.0818
GATTGGCA: 0.00988
GCATAGCA: 0.133
ATTACACC: 0.041
CTGTTCAC: -0.0508
AGCGTCTA: -0.0534
CCCATTTA: 0.0448
GTCACAGA: 0.0179
CCCAAGCG: -0.314
CGTTAGAG: -0.00675
AGTTGTCC: 0.0549
CGGTCTGC: -0.326

Study 3 — technique: RNA Bind-n-Seq; molecule type: RNA; sample: in vitro; concentration: 365 nM; relative to: no-protein control; reading: higher = stronger binding; endpoint: RBNS enrichment (R)
Target: RNA binding protein fox-1 homolog 2, RRM domain, GST-SBP tag (RBFOX2, Homo sapiens, UniProt O43251-10, residues 100-194)
Setting: natural RNA segment, single round, ends assumed
All sequences stand within: GGGAGUUCUACAGUCCGACGAUC … UGGAAUUCUCGGGUGCCAA
Residues (chain): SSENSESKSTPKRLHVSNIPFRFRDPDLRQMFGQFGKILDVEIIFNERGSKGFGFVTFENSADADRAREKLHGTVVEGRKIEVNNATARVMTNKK
CCAUUUUCUCUUUCUAAGAAGAGCAACCUCAGCCGGAGUGAGUUUUUUCUGACUUUGCAGCUGAGUCUGGAGAAAAGUGGCAUGCCAGAGCGGGUCGGUGGGAAACAGGG: 1.52
UCUGAUUUCUGCAGUUCCCGCCAGCCUCCAACACGGGGACUCUGCCGUAACUGGAAUCUUCAUAGGUCAUAUUGAAAUCUUCAAGGUGACCAUGCCCCACCGGGGUGCUG: 0.205
AACCUGAAGACAUCCUACAAUGAUUUCCCACACUCUAUUUUUCCUUAUGUUUGCUUAAAUAGCAAAAAUCAACACUAAAUGUCUAAAGGAAUUUGUAAUUUGAGACCUAG: 0.371
AACCUCUCUCAACCAGUGAAACAUCCCCUAAACCUGUCCAUCCCUGACUCCUGUCCCCAAGGGAGGCAUUGUGGUCCUGUCCCCUUGGUAGAGCUCCUGAGGUACUGUUC: 0.702
AUGUUGUGCUAAGAUAAUGGCCUCCUGCUGCUGCCUAAAUGCUGAAAUGAGGUUGAGAUGUUUUUCAAGGCUAACUUCAUGGACUCACUCUGUUUAGUGACUUAAUUGUA: 0.514
GUACCGGGGCAUUGCCAGUCACCUGAGCUAAGGAAGCAGGCAGGCUGGUGGUUCUUCUGUUCUCAAGCCUUUCAGGUGAGGACACAUGGCCUGGUGAUGCAGCUGGCUGG: 0.433
UCGAACGAAUGAGUAGAGUUCAGAGGUCUUCGUGUUCACAUUUAAAACUAGAUAAAUGACCUCAUUUUCUUGAGCUUGAAUUCAUUUUUAAUUUUAAUUUUAUUUUAUAC: 0.894
ACCCCCUGAUGCUUUGAAGGCUAAUUCUCUUCUAAUGGAGUAGCUGUUGCCUAGUAUUCACCUGUGUUACUUUGUAUAUGUCACAGUUCUAUGUUUAAUGCUUUACUAAU: 0.672

Study 4 — technique: competition protein-binding microarray; molecule type: double-stranded DNA, one strand shown; sample: in vitro; concentration: 2 µM; together with: Cbf1 competitor, 0.05 µM; reading: higher = stronger binding; endpoint: fluorescence intensity; all sequences stand within: … GTCTTGATTCGCTTGACGCTGCTG
Target: Phosphate system positive regulatory protein PHO4, full length, GST-tagged (PHO4, Saccharomyces cerevisiae, UniProt P07270, residues 1-312)
Chain of UniProt P07270 (whole entry, looked up): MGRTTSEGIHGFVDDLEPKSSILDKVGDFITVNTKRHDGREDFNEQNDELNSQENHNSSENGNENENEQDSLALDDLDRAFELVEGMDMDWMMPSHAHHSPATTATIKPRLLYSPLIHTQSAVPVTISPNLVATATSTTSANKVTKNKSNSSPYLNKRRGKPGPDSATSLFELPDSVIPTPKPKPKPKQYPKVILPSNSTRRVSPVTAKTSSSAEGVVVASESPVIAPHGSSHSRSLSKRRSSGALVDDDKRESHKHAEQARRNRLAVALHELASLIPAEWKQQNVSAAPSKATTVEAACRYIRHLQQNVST
Setting: whole 60-bp probe, lowest competitor level
AAATAAAGAAATCGGCACGCTGGACGTAATGAGGTT: 8150 a.u.
AAAATGAGATAGATACATGCGTGAGACAATTGCCTT: 6380 a.u.
CTTTCCCGATCTTGCCTAGTGGGTGTAGCACATTTG: 4700 a.u.
CTTTCCCGATCTTGTAGGGTGGGTGTAGCACATTTG: 4620 a.u.
AAAGCGGTAATTTGCCTGGTGGGTGCAGATATCTAT: 4080 a.u.
AGCACTGCCTCCTGTCACCTGTTTCGGCATGGCACA: 4970 a.u.
TGCGCAACAACTTGATTCGTGGGTGTATGTCTAGAA: 5690 a.u.
CTTTACCATTCCCATCACGGGAAGAGTGTGTTGGCA: 6300 a.u.
CTGTAGAAGCTAGTACTTGTGATGAACCATTGGCAG: 3420 a.u.
AATGTAGCTCGTAAGCGCCTGATCCAGTAAGCCAAA: 2690 a.u.
GTTCAGTCCTCATATCATGTGATTCCCCTGGCTCTC: 5690 a.u.
CGTCCTAGTGATTGTCCAGTGGGTGCCATGAGGAAG: 6580 a.u.
GACAAAAGAAGGTTAAACGTGGCAATGACAAGAGCC: 11000 a.u.
TAGAGCAAGAACTAGTTCGTGCCGAAGCTGAATCTT: 6060 a.u.
TTGTTGCAGTAATATTATGTGTCAAACCAGCCTGGC: 3210 a.u.
CTTTCCCGATCTTTTCACGTGCTGTTAGCACATTTG: 12500 a.u.
TAACTCAGATTGACGCTCGTGATGGCTTCTCCACTG: 7650 a.u.
ATATTTTTCCCGTCCTGCGTGCTGTCCCAATACAAT: 7000 a.u.
CTAACGAAGGTTTGGCCGGTGGGTGACAAGCCAAGT: 3600 a.u.

Some of these lines once more (study 1):
UUCCCAACCUCCCGCCUCACCCCACCCCCGCUUUUUGGAAAGUUUUUGGCGUUUCUUUUUUUUAGAAAUACAAAGUGAUUACAGUUUCCCCCGCAAGGGUCUAUCGAAGGGCUUGACGGA: 0.76 ratio
UCGGAUGCUGUGCUGGGUCACUUUCCGUAUCCAGAUCCUUCACAGUGGACAGAUGAAGAACUGGGAAUCCCUCCUGAUGACGAGGACUGACACUGUAGACUCAGCCUACGAGUAGGAGCA: 0.312 ratio
CUGGCCUGGCCCUCCCCAGGGGCCUCCUUUCGUAUAGUAACUGUCAGUGCAUCAGAUAUUUUUAGCUGCAACUCCCUACUGGGUGGGGCACCCAUUUCAGGCAGAAGGUUUUGGUACCCU: 0.74 ratio
AUCAAGUACUUUGGGGACAUCAUUAGUGUGGGACAGAGACUGUUGCAAGGGGCCCGGAUCUUAGGGAUUCCAGUUAUCAUAACGGAACAAUACCCCAAAGGACUUGGCAGCACCGUUCAA: 0.21 ratio
GUUGCCAGCUUCCGGUUCCGUUGGGCUAGCAAGCUCCCUGAGCUACGUGUCUCUACGCUCUCAAUCCGCCAUCCAACAAACAUGGAUCAGGUAAUGCAGUUUGUGGAGCCCAGCCGGCAG: 0.0901 ratio
GCUCUUGGGAAUGUAAUAAGUGCCUUGGGGGACAAGAGCAAGAGAGCCACCCAUGUCCCUUACAGAGACUCUAAGCUGACAAGACUCUUGCAGGAUUCCCUUGGGGGUAACAGCCAAACC: 0.157 ratio
